{"data": "Results gathered from unrelated publications", "note": "± marks the error that the study gave."}
{"Substance": "Cc1ccc(S(=O)(=O)N2C(=O)CSC2c2ccccc2F)cc1 (stereo not drawn)", "organism": "Salmonella enterica", "assay": "microbial growth, broth dilution", "system": "TYPHIMURIUM", "MIC": "16 µg/mL"}
{"Substance": "Cc1ccc(NCc2ccc(Oc3ccccn3)cc2)cc1", "organism": "Mycobacterium tuberculosis", "system": "H37Rv, GAST-Fe medium", "setting": "1 weeks, pH 6.6", "MIC": "21.6 µM"}
{"Substance": "CC1(C)SC2C(NC(=O)C(NC(=O)C3=C(O)CN(c4ccccc4)C3=O)c3ccccc3)C(=O)N2C1C(=O)O (stereo not drawn)", "organism": "Escherichia coli", "assay": "broth microdilution", "system": "BW25113, Mueller-Hinton broth", "setting": "with: CCCP 50 µg/mL", "MIC": "100 µg/mL"}
{"Substance": "COC(=O)c1ccc(NC(=O)c2[nH]c(C)c(Cl)c2Cl)c(N2CCNCC2)c1.Cl", "organism": "Enterococcus faecium", "assay": "microbial growth, broth dilution", "system": "ATCC35667", "MIC": "> 32 µg/mL"}
{"Substance": "vancomycin", "organism": "Enterococcus faecium", "system": "ATCC BAA-2317, VanA", "setting": "16 h, 37 °C", "MIC": "250 µg/mL"}
{"Substance": "Cc1ccccc1NCc1ccc(Oc2ccccn2)cc1", "organism": "Mycobacterium tuberculosis", "system": "H37Rv, 7H9/ADC/Tween medium", "setting": "2 weeks", "MIC": "> 100 µM"}
{"Substance": "Cc1ccc(S(=O)(=O)N2C(=O)CSC2c2ccccc2Br)cc1 (stereo not drawn)", "organism": "Salmonella enterica", "assay": "microbial growth, broth dilution", "system": "TYPHIMURIUM", "MIC": "32 µg/mL"}
{"Substance": "COc1cccc(NCc2ccc(Oc3ccccn3)cc2)c1", "organism": "Mycobacterium tuberculosis", "system": "H37Rv, GAST-Fe medium", "setting": "2 weeks, pH 6.6", "MIC": "20 to 40 µM"}
{"Substance": "CC1(C)S[C@@H]2[C@H](NC(=O)[C@H](N)c3ccccc3)C(=O)N2[C@H]1C(=O)O", "organism": "Limosilactobacillus fermentum", "assay": "broth microdilution", "system": "ATCC 14931, MRS medium", "setting": "24 h, 37 °C", "MIC": "0.62 µg/mL"}
{"Substance": "Cc1[nH]c(C(=O)Nc2ccc(C(=O)O)cc2N2CCC[C@H](NC(=O)OC(C)(C)C)C2)c(Cl)c1Cl", "organism": "Enterococcus faecium", "assay": "microbial growth, broth dilution", "system": "ATCC35667", "MIC": "> 32 µg/mL"}
{"Substance": "COc1ccc(-c2n(CC(=O)OC3CC(C)CCC3C(C)C)c3ccccc3[n+]2C)cc1 (stereo not drawn)", "organism": "Mycolicibacterium smegmatis", "assay": "microbial growth", "MIC": "5 µM"}
{"Substance": "Cc1ccc(S(=O)(=O)N2C(=O)CSC2c2ccccc2O)cc1 (stereo not drawn)", "organism": "Salmonella enterica", "assay": "microbial growth, broth dilution", "system": "TYPHIMURIUM", "MIC": "64 µg/mL"}
{"Substance": "KTLTGKTITLE", "organism": "Mycolicibacterium smegmatis", "system": "peptide, mc^2155, 7H9 medium", "setting": "overnight, 37 °C", "MIC": "50 µM"}
{"Substance": "CC(C)(C)OCC1NC(=O)C(C(=O)NC(C(=O)NC2C(=O)N3C2SC(C)(C)C3C(=O)O)c2ccccc2)=C1O (stereo not drawn)", "organism": "Escherichia coli", "assay": "broth microdilution", "system": "BW25113, Mueller-Hinton broth", "setting": "with: CCCP 50 µg/mL", "MIC": "25 µg/mL"}
{"Substance": "CNC(C)C1CCC(N)C(OC2C(N)CC(N)C(OC3OCC(C)(O)C(NC)C3O)C2O)O1 (stereo not drawn)", "organism": "Mycolicibacterium smegmatis", "system": "wild type", "MIC": "0.12 µg/mL"}
{"Substance": "pneumocandin H", "organism": "Candida tropicalis", "assay": "broth microdilution, resazurin", "system": "ATCC 750", "setting": "24 h, 35 °C", "MIC": "1.6 µg/mL"}
{"Substance": "COc1ccc2ncc(F)c(CCN3CCC(/C=C\\c4ccc5c(c4)NC(=O)CO5)CC3)c2n1", "organism": "Salmonella enterica", "assay": "microbial growth, broth dilution", "system": "ATCC14028 TYPHIMURIUM", "MIC": "64 µg/mL"}
{"Substance": "CC1(C)SC2C(NC(=O)C(NC(=O)C3=C(O)C4(CC4)NC3=O)c3ccccc3)C(=O)N2C1C(=O)O (stereo not drawn)", "organism": "Escherichia coli", "assay": "broth microdilution", "system": "BW25113, Mueller-Hinton broth", "setting": "with: CCCP 50 µg/mL", "MIC": "50 µg/mL"}
{"Substance": "COc1ccc2ncc(F)c(CCN3CCC(/C=C\\c4ccc(C)cc4)CC3)c2n1", "organism": "Salmonella enterica", "assay": "microbial growth, broth dilution", "system": "ATCC14028 TYPHIMURIUM", "MIC": "≥ 64 µg/mL"}
{"Substance": "CC1(C)SC2C(NC(=O)C(NC(=O)C3=C(O)CNC3=O)c3ccccc3)C(=O)N2C1C(=O)O (stereo not drawn)", "organism": "Escherichia coli", "assay": "broth microdilution", "system": "BW25113, Mueller-Hinton broth", "MIC": "200 µg/mL"}
{"Substance": "Cc1ccc(S(=O)(=O)N2C(=O)CSC2c2ccccc2Cl)cc1 (stereo not drawn)", "organism": "Salmonella enterica", "assay": "microbial growth, broth dilution", "system": "TYPHIMURIUM", "MIC": "64 µg/mL"}
{"Substance": "Clc1cccc(NCc2ccc(Oc3ccccn3)cc2)c1", "organism": "Mycobacterium tuberculosis", "system": "H37Rv, GAST-Fe medium", "setting": "2 weeks, pH 6.6", "MIC": "20 to 40 µM"}
{"Substance": "CCc1cc(=O)c2c(OCC(O)CNC(C)C)c3ccoc3c(OC)c2o1 (stereo not drawn)", "organism": "Staphylococcus epidermidis", "assay": "broth microdilution", "system": "ATCC 35984", "setting": "19 h, 35 °C", "MIC": "> 256 µg/mL"}
{"Substance": "Brc1cccc(NCc2ccc(Oc3ccccn3)cc2)c1", "organism": "Mycobacterium tuberculosis", "system": "H37Rv, GAST-Fe medium", "setting": "2 weeks, pH 6.6", "MIC": "20 to 40 µM"}
{"Substance": "pneumocandin B0", "organism": "Candida tropicalis", "assay": "broth microdilution, resazurin", "system": "ATCC 750", "setting": "24 h, 35 °C", "MIC": "1.6 µg/mL"}
{"Substance": "CN(C)C(=N)N=C(N)N", "organism": "Mycobacteroides abscessus", "assay": "microbial growth", "system": "19977", "MIC": "> 512 µM"}
{"Substance": "CCOC(=O)c1c(N)csc1-c1cn(-c2ccccc2)nc1-c1ccc(C)cc1", "organism": "Bacillus subtilis", "assay": "broth microdilution", "system": "clinical urinary isolate", "setting": "compound gamma-irradiated 15 kGy", "MIC": "0.124 ± 0.6 µg/mL"}
{"Substance": "Cc1[nH]c(C(=O)Nc2ccc(C(=O)NCc3n[nH]c(=O)o3)cc2N2CCN(C(=O)OC(C)(C)C)CC2)c(Cl)c1Cl", "organism": "Enterococcus faecium", "assay": "microbial growth, broth dilution", "system": "ATCC35667", "MIC": "32 µg/mL"}
{"Substance": "CCc1cc(=O)c2c(OCC(O)CN3CCC(C)CC3)c3ccoc3c(OC)c2o1 (stereo not drawn)", "organism": "Staphylococcus epidermidis", "assay": "broth microdilution", "system": "ATCC 35984", "setting": "19 h, 35 °C", "MIC": "> 256 µg/mL"}
{"Substance": "Cc1ccc(S(=O)(=O)N2C(=O)CSC2c2cccc(O)c2)cc1 (stereo not drawn)", "organism": "Salmonella enterica", "assay": "microbial growth, broth dilution", "system": "TYPHIMURIUM", "MIC": "64 µg/mL"}
{"Substance": "pneumocandin I", "organism": "Candida tropicalis", "assay": "broth microdilution, resazurin", "system": "ATCC 750", "setting": "24 h, 35 °C", "MIC": "0.2 µg/mL"}
{"Substance": "Cc1ccc(S(=O)(=O)N2C(=O)CSC2c2ccc(C(C)C)cc2)cc1 (stereo not drawn)", "organism": "Salmonella enterica", "assay": "microbial growth, broth dilution", "system": "TYPHIMURIUM", "MIC": "> 256 µg/mL"}
{"Substance": "CC1(C)SC2C(NC(=O)C(NC(=O)C3=C(O)C(c4ccccc4)NC3=O)c3ccccc3)C(=O)N2C1C(=O)O (stereo not drawn)", "organism": "Escherichia coli", "assay": "broth microdilution", "system": "BW25113, Mueller-Hinton broth", "setting": "with: CCCP 50 µg/mL", "MIC": "12.5 µg/mL"}
{"Substance": "CCc1cc(=O)c2c(OCC(O)CN(CC)CC)c3ccoc3c(OC)c2o1 (stereo not drawn)", "organism": "Staphylococcus epidermidis", "assay": "broth microdilution", "system": "ATCC 12228", "setting": "19 h, 35 °C", "MIC": "> 256 µg/mL"}
{"Substance": "Cc1ccc(S(=O)(=O)N2C(=O)CSC2c2ccc([N+](=O)[O-])cc2)cc1 (stereo not drawn)", "organism": "Salmonella enterica", "assay": "microbial growth, broth dilution", "system": "TYPHIMURIUM", "MIC": "64 µg/mL"}
{"Substance": "CCc1cc(=O)c2c(O)c3ccoc3c(OC)c2o1", "organism": "Staphylococcus epidermidis", "assay": "broth microdilution", "system": "ATCC 35984", "setting": "19 h, 35 °C", "MIC": "64 µg/mL"}
{"Substance": "CN1CC(O)=C(C(=O)NC(C(=O)NC2C(=O)N3C2SC(C)(C)C3C(=O)O)c2ccccc2)C1=O (stereo not drawn)", "organism": "Escherichia coli", "assay": "broth microdilution", "system": "BW25113, Mueller-Hinton broth", "setting": "18 h, without clavulanic acid", "MIC": "100 µg/mL"}
{"Substance": "Cc1[nH]c(C(=O)Nc2ccc(C(=O)O)cc2N2CCNCC2)c(Cl)c1Cl.Cl", "organism": "Enterococcus faecium", "assay": "microbial growth, broth dilution", "system": "ATCC35667", "MIC": "> 32 µg/mL"}
{"Substance": "CC1(C)SC2C(NC(=O)C(NC(=O)C3=C(O)C(Cc4ccsc4)NC3=O)c3ccccc3)C(=O)N2C1C(=O)O (stereo not drawn)", "organism": "Escherichia coli", "assay": "broth microdilution", "system": "BW25113, Mueller-Hinton broth", "setting": "18 h, without clavulanic acid", "MIC": "50 µg/mL"}
{"Substance": "Cc1[nH]c(C(=O)Nc2ccc(C(=O)O)cc2N2CCCC(CN)C2)c(Cl)c1Cl.Cl (stereo not drawn)", "organism": "Enterococcus faecium", "assay": "microbial growth, broth dilution", "system": "ATCC35667", "MIC": "16 to 32 µg/mL"}
{"Substance": "Brc1ccc(NCc2ccc(Oc3ccccn3)cc2)cc1", "organism": "Mycobacterium tuberculosis", "system": "H37Rv, 7H9/ADC/Tween medium", "setting": "1 weeks", "MIC": "70 µM"}
{"Substance": "Cc1[nH]c(C(=O)Nc2ccc(-c3n[nH]c(=O)o3)cc2N2CCC[C@H](N)C2)c(Cl)c1Cl.Cl", "organism": "Enterococcus faecium", "assay": "microbial growth, broth dilution", "system": "ATCC35667", "MIC": "2 µg/mL"}
{"Substance": "Clc1ccc(NCc2ccc(Oc3ccccn3)cc2)cc1", "organism": "Mycobacterium tuberculosis", "system": "H37Rv, 7H9/ADC/Tween medium", "setting": "1 weeks", "MIC": "40 µM"}
{"Substance": "Cc1ccc(S(=O)(=O)N2C(=O)CSC2c2ccc(O)cc2)cc1 (stereo not drawn)", "organism": "Salmonella enterica", "assay": "microbial growth, broth dilution", "system": "TYPHIMURIUM", "MIC": "32 µg/mL"}
{"Substance": "CC(C)CC1NC(=O)C(C(=O)NC(C(=O)NC2C(=O)N3C2SC(C)(C)C3C(=O)O)c2ccccc2)=C1O (stereo not drawn)", "organism": "Escherichia coli", "assay": "broth microdilution", "system": "BW25113, Mueller-Hinton broth", "MIC": "50 µg/mL"}
